Measurements pooled from the literature.
Each numbered part is a random draw from the data of one study; scales do not carry over between parts.

Series 1 — method: protein-binding microarray; form: double-stranded DNA, one strand shown; medium: in vitro; concentration: not given; direction: higher = stronger binding
Target: Protein max, full length (MAX, Homo sapiens, UniProt P61244-2, residues 1-151)
Notes: k-mer, scored over probes, only values ≥0.25
Sequence | E-score
CATCGTGA | 0.357
GGCGCACA | 0.273
ACGTGCCT | 0.398
TCATGCGA | 0.286
CCAGTCAC | 0.292

Series 2 — method: protein-binding microarray; form: double-stranded DNA, one strand shown; medium: in vitro; concentration: 940 nM top; notes: 60-bp whole probe; added: salmon DNA 0.4 mg/ml; reference: random background probes; direction: higher = stronger binding
Target: Interferon regulatory factor 5, full length, phosphomimetic (IRF5, Homo sapiens, UniProt Q13568-2, residues 1-514, S451D/S453D/S456D/S462D)
Sequence | fitted relative affinity [z-score]
GCCTAGCACGACGGTTTCGACTTTCGTGACGTGCTAGTCTTGATTCGCTTGACGCTGCTG | 6.54
GCCTAGCACATCATTTTAGTTTTCATTATGTGCTAGGTCTTGATTCGCTTGACGCTGCTG | 2.33
GCCTAGCACGACAATATCGGGTTTCGAGACGTGCTAGTCTTGATTCGCTTGACGCTGCTG | 1.74
GCCTAGCACGACGGTCTCGGTTGCGGGACGTGCTAGGTCTTGATTCGCTTGACGCTGCTG | 4.3

Series 3 — method: protein binding microarray; form: double-stranded DNA, one strand shown; medium: in vitro; concentration: not given; reference: not given; direction: higher = stronger binding
Target: Histone acetyltransferase KAT6A, winged helix 1, GST fusion (KAT6A, Homo sapiens, UniProt Q92794, residues 1-85)
Notes: 8-mer, flanks averaged, mean of 2 arrays, mostly near background
Target sequence (chain): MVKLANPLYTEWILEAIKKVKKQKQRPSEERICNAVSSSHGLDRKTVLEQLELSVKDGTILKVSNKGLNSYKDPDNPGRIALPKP
Sequence | E-score
GTATGATA | -0.031
CTACAGAG | -0.186
GCTAACCC | 0.133
CCCTTCCG | 0.18
CAGTTGAG | -0.264
CCTGCCCG | 0.159
CTATCGTA | -0.1
GGCCCCAC | 0.0132

Single results of other studies
Substance | target | assay | test system | setting | how to read | endpoint | value
PhoQ, residues 284 288 289 292 302 303 ASSHFY | PhoP, residues 12 14 15 18 19 AQALL (Escherichia coli, UniProt P23836) | Sort-seq, item: YFP reporter | E. coli | PhoQ-PhoP variant library, added: 10 µM Mg2+ | reference: high Mg2+ state, higher = stronger signaling | fold induction | 20.1
